Measurements pooled from the literature.
Protocols differ between the studies behind these lines. ± gives the spread as reported.
Sequence of UniProt Q92630 (whole entry, looked up): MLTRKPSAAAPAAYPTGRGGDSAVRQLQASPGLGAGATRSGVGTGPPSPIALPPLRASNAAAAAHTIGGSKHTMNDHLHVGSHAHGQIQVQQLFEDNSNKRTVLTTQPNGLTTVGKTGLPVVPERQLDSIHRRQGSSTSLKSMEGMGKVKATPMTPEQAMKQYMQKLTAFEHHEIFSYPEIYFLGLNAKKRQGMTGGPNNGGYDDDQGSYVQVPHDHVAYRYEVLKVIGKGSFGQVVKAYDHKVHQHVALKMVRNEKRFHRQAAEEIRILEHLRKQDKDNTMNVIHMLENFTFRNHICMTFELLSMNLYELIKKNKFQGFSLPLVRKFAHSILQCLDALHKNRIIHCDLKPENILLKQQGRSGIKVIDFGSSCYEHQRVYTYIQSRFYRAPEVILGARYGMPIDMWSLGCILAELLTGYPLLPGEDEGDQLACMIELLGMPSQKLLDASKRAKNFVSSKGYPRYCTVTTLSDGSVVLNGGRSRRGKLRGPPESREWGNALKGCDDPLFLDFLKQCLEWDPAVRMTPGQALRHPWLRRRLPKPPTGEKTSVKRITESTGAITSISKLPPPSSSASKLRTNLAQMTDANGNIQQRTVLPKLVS
Sequence of UniProt Q16644 (whole entry, looked up): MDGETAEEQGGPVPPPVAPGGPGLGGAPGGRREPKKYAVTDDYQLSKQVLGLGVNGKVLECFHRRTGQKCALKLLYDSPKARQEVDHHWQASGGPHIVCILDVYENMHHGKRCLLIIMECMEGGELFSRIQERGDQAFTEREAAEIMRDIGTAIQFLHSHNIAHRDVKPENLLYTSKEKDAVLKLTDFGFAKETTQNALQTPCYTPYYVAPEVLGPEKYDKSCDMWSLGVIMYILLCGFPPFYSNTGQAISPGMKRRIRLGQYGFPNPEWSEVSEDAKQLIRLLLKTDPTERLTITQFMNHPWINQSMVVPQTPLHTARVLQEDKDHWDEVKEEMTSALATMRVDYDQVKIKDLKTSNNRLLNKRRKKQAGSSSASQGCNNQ

`O=C1NC(=O)c2c1c1cc(F)c[n+]3c1c1c2c2cc(O)ccc2[n]1[Ru-4]312([N]=C=S)[S+]3CC[S+]1CC[S+]2CC3` (stereo not shown) gave a remaining activity of 117% (MAPKAPK3 (Homo sapiens, UniProt Q16644); enzyme activity; 100 nM, human enzyme, with: 10 µM ATP; baseline: untreated).
`CC[C@H](C)[C@H](NC(=O)[C@H](CCCCN)NC(=O)CNC(=O)[C@H](CC(C)C)NC(=O)[C@H](Cc1ccccc1)NC(=O)[C@H](CCCCN)NC(=O)[C@H](CO)NC(=O)[C@H](Cc1ccccc1)NC(=O)[C@H](Cc1c[nH]c2ccccc12)NC(=O)[C@H](CCC(N)=O)NC(=O)[C@@H](NC(=O)[C@H](Cc1ccccc1)NC(=O)CCCCCNC(=O)CN1CCN(CC(=O)O)CCN(CC(=O)O)CCN(CC(=O)O)CC1)C(C)C)C(=O)N[C@@H](CCC(=O)O)C(=O)N1CCC[C@H]1C(=O)N[C@@H](CC(=O)O)C(=O)N[C@H](C(=O)N[C@@H](CO)C(=O)N[C@@H](CCC(N)=O)C(=O)N[C@H](C(=O)N[C@@H](CCC(N)=O)C(=O)N[C@@H](CC(=O)O)C(=O)N1CCC[C@H]1C(=O)N[C@@H](CC(N)=O)C(=O)N[C@@H](CC(=O)O)C(=O)N[C@@H](CCC(N)=O)C(=O)N[C@@H](Cc1ccc(O)cc1)C(=O)N[C@@H](CCC(=O)O)C(=O)N1CCC[C@H]1C(=O)N[C@@H](Cc1ccccc1)C(=O)O)C(C)C)C(C)C` [copper-64 labelled] gave a tissue uptake of 1.67 ± 0.1 %ID/g (C57BL/6 mice, male, tumour-free, pancreas; 0.5 h).
With `O=C1NC2(CC2)COc2ncc(F)cc2[C@H]2COCCN2c2ccn3ncc1c3n2` the serum sodium was 146 ± 1 mmol/L (Sprague-Dawley rat, male, serum; oral, 10 mg/kg/day, end of treatment, 4-week subacute toxicity).
`C[C@H](O)[C@@H](NC(=O)[C@H]1CCCN1C(=O)[C@@H](CCCCN)NC(=O)[C@@H](CO)NC(=O)[C@@H](Cc1ccc(O)cc1)NC(=O)[C@@H](CC(N)=O)NC(=O)CCOCCOCCOCCNC(=O)CN1CCN(CC(=O)O)CCN(CC(=O)O)CCN(CC(=O)O)CC1)C(=O)N[C@H](CC(=O)O)C(=O)N[C@H](CCCNC(=N)N)C(=O)N[C@H](CCC(N)=O)C(=O)N[C@H](Cc1ccc(O)cc1)C(=O)N[C@H](Cc1c[nH]cn1)C(=O)N[C@H](Cc1ccccc1)C(N)=O` [copper-64 labelled] has a tissue uptake of 1.07 ± 0.44 %ID/g (C57BL/6J mice, stomach; intravenous, 1.85 MBq, 0.6667 h, radiolabelled).
With `CS(C)(=O)=Nc1ccc(-c2ccc(-c3nc4cc(O[C@@H]5CO[C@H]6[C@@H]5OC[C@H]6O)[nH]c4cc3F)cc2)cc1` the inhibition was -8% (DYRK2 (Homo sapiens, UniProt Q92630); enzyme activity, inhibitor; 10 µM).
With `CC(C)C[C@@H](NC(=O)[C@@H](CCCNC(=N)N)NC(=O)[C@@H](Cc1c[nH]cn1)NC(=O)[C@@H](Cc1c[nH]c2ccccc12)NC(=O)[C@@H](Cc1c[nH]cn1)NC(=O)[C@@H](Cc1ccccc1)NC(=O)[C@H](NC(=O)[C@@H](Cc1ccc(O)cc1)NC(=O)CNC(=O)CNC(=O)CCOCCOCCOCCNC(=O)CN1CCN(CC(=O)O)CCN(CC(=O)O)CC1)[C@H](C)O)C(=O)N[C@H](CC(N)=O)C(=O)N1CCC[C@@H]1C(=O)O` [gallium-68 labelled] the tissue uptake was 0.67 ± 0.1 %ID/g (gamma counting; C57BL/6 mice, male, lung; intravenous, 1.85 MBq, 120 min).
With `CN1Cc2cc(Cl)ccc2-n2c(nnc2C2CCN(c3cccc([18F])n3)CC2)C1` the tissue uptake was 1.51 ± 0.83 %ID/g (C57BL/6 mouse male, bone; intravenous, 3.7 MBq, 1 min).
`CC[C@H](C)[C@H](NC(=O)[C@H](CCCNC(=N)N)NC(=O)[C@H](CCCCN)NC(=O)[C@H](Cc1ccc(O)cc1)NC(=O)[C@H](CC(=O)O)NC(=O)[C@H](C)NC(=O)CNC(=O)CCOCCOCCOCCNC(=O)CN1CCN(CC(=O)O)CCN(CC(=O)O)CCN(CC(=O)O)CC1)C(=O)N[C@H](C(=O)N[C@@H](CC(C)C)C(=O)N[C@@H](CCCCN)C(=O)N[C@H](C(=O)N[C@@H](CC(N)=O)C(N)=O)C(C)C)[C@@H](C)O` [copper-64 labelled] gave a tissue uptake of 2.46 ± 1.08 %ID/g (ex vivo gamma counting; C57BL/6J male mice, B16-F10 tumour, spleen; intravenous, 1.85 MBq, 20 min).
`CCOP(=O)([O-])CNC(=O)CN1CCN(CC(=O)NCP(=O)([O-])OCC)CCN(CC(=O)NCP(=O)([O-])OCC)CCN(CC(=O)NCP(=O)([O-])OCC)CC1.[177Lu+3]` gave a tissue uptake of 0.005 ± 0.002 % injected dose/g (Sprague-Dawley rat, blood; intravenous (tail vein), dose not given, 2 h).
The tissue uptake of `CSCC[C@H](NC(=O)CNC(=O)[C@H](CCCCN)NC(=O)[C@H](CC(C)C)NC(=O)[C@@H]1CCCN1C(=O)[C@H](CO)NC(=O)[C@H](Cc1c[nH]cn1)NC(=O)[C@H](Cc1c[nH]c2ccccc12)NC(=O)[C@H](CCCNC(=N)N)NC(=O)[C@H](CC(C)C)NC(=O)[C@H](CCCNC(=N)N)NC(=O)[C@H](Cc1c[nH]c2ccccc12)NC(=O)[C@H](CS)NC(=O)CCCCCNC(=O)CN1CCN(CC(=O)O)CCN(CC(=O)O)CCN(CC(=O)O)CC1)C(=O)O` [copper-64 labelled] is reported as 0.45 %ID/g (ex vivo biodistribution; BALB/c nude mice, muscle; intravenous, dose not given, 6 h, Huh-7 tumour-bearing).
`CCCC[C@H]1C(=O)N(C)[C@@H](CCCC)C(=O)N[C@@H](CCCNC(=O)CN2CCN(CC(=O)O)CCN(CC(=O)O)CCN(CC(=O)O)CC2)C(=O)N[C@H](C(=O)NCC(N)=O)CSCC(=O)N[C@@H](Cc2ccc(O)cc2)C(=O)N(C)[C@@H](C)C(=O)N[C@@H](CC(N)=O)C(=O)N2CCC[C@H]2C(=O)N[C@@H](Cc2c[nH]cn2)C(=O)N[C@@H](CC(C)C)C(=O)N(C)CC(=O)N[C@@H](Cc2c[nH]c3ccccc23)C(=O)N[C@@H](CO)C(=O)N[C@@H](Cc2c[nH]c3ccccc23)C(=O)N1C` [gallium-68 labelled] gave a tissue uptake of 0.85 ± 0.36 %ID/g (NOD/SCID mice with CHO-hPD-L1 xenograft, muscle; 120 min post injection).
For `COc1ccccc1-c1n[nH]c2nc(NC3CCN(C(=O)Cc4ccc(F)cc4F)CC3)ncc12`, the relative abundance was 0.98 (bead binding, competition bead pull-down, measured: LINJ.35.3150; Leishmania donovani extract; 10 µM; baseline: vehicle).
The tissue uptake of `O=C([O-])CNC(=O)CN1CCN(CC(=O)NCC(=O)[O-])CCN(CC(=O)NCC(=O)[O-])CCN(CC(=O)NCC(=O)[O-])CC1.[177Lu+3]` is reported as 0.011 % injected dose/g (Sprague-Dawley rat, pancreas; intravenous (tail vein), dose not given, 2 h).

Some of these lines once more:
`CCOP(=O)([O-])CNC(=O)CN1CCN(CC(=O)NCP(=O)([O-])OCC)CCN(CC(=O)NCP(=O)([O-])OCC)CCN(CC(=O)NCP(=O)([O-])OCC)CC1.[177Lu+3]` gave a tissue uptake of 0.005 ± 0.002 % injected dose/g (Sprague-Dawley rat, blood; intravenous (tail vein), dose not given, 2 h).
